Measurements collected from several papers.
Protocols differ between the studies behind these lines. Numbers after ± are the reported error.
Sequence of UniProt Q9UJZ1 (whole entry, looked up): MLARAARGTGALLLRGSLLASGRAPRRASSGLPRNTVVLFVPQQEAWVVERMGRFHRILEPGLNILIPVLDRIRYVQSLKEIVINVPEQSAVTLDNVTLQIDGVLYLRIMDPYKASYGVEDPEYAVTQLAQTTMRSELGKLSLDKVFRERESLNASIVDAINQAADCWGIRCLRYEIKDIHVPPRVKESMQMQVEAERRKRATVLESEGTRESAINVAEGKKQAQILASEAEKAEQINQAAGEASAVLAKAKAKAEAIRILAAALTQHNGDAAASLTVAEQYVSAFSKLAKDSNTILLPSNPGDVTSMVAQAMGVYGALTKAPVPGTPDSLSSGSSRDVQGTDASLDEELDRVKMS

CC1(C)C(C(=O)c2cn(CCCCCF)c3ccccc23)C1(C)C
ED50 (antinociception, tail withdrawal warm water; ICR mouse male; intravenous): 3.3 µmol/kg

COc1ccc2c3c1O[C@H]1C(=O)CC[C@@]4(O)[C@@H](C2)N(C)CC[C@]314
heat allodynia (mouse C57BL/6J, carrageenan-induced; ip, 1 mg/kg): decreased

Cn1cc(Nc2nccc(-c3ccc4c(c3)CN(C3COC3)CC[C@H]4NC(=O)c3cn(C(C)(C)C)nn3)n2)cn1
pathway activation z-score (refers to: PI3K/AKT in influenza; splenic B cells, mice; 30 mg/kg, IgD-activated in vivo; baseline: vehicle, direction not given): 3.32

CC(C)C[C@H](CN)CC(=O)O
LEP N2-P2 amplitude difference (laser-evoked potentials; healthy male subjects, capsaicin responders, capsaicin-treated skin; 150 mg; baseline: placebo): -3.53 µV

CCN(CC)C(=O)[C@@H]1C=C2c3cccc4[nH]cc(c34)C[C@H]2N(C)C1
participants rating experience more valuable (healthy participants; dose not given, end-of-study assessment; baseline: compound over placebo): 61%

C[C@]12CC[C@H]3[C@@H](CC=C4CC(O)CC[C@@]43CO)[C@@H]1CCC2O (stereo partly shown)
liver marker protein levels (immunoblot, refers to: cleaved caspase-3, TGF-β1, ACTA2, CD11B; rat, GAN diet-induced MASH, liver; dose not given; baseline: vehicle): decreased

CC(C)C[C@H](NC(=O)[C@H](CCC(N)=O)NC(=O)[C@H](CO)NC(=O)[C@H](CO)NC(=O)[C@H](CCCNC(=N)N)NC(=O)[C@H](CCCNC(=N)N)NC(=O)[C@H](CCCNC(=N)N)NC(=O)[C@H](CC(C)C)NC(=O)[C@H](Cc1c[nH]cn1)NC(=O)[C@@H](NC(=O)[C@H](CCCCN)NC(=O)[C@H](CCCNC(=N)N)NC(=O)[C@H](CCCNC(=N)N)NC(=O)[C@H](CCCNC(=N)N)NC(=O)[C@H](CCC(N)=O)NC(=O)[C@H](CCCNC(=N)N)NC(=O)[C@H](CCCNC(=N)N)NC(=O)[C@H](CCCCN)NC(=O)[C@H](CCCCN)NC(=O)[C@H](CCCNC(=N)N)NC(=O)CNC(=O)[C@@H](N)Cc1ccc(O)cc1)[C@@H](C)O)C(=O)N[C@@H](CCCCN)C(N)=O
mIPSC frequency (GABAA receptor-mediated mIPSCs; CA1 pyramidal neurons, rat; dose not given, 5 min after inhibitory avoidance training): decreased

CC(C)C[C@H](CN)CC(=O)O
ED50 (mechanical withdrawal threshold; mouse, carrageenan inflammatory pain; oral): 6.72 mg/kg

C#CCN(C)[C@H](C)Cc1ccccc1
evoked spike probability (dentate gyrus granule cells, APP/PS1 mice; oral, 10 mg/kg, 336 h, 2 weeks treatment, added: 300 µA stimulation): 0.644 ± 0.162

CCCCCc1cc(O)c2c(c1)OC(C)(C)[C@@H]1CCC(C)=C[C@@H]21
ED50 (spontaneous activity; ICR mouse, male; intravenous): 15 µmol/kg

COC(=O)[C@@H](NC(=O)c1nn(Cc2ccc(F)cc2)c2ccccc12)C(C)(C)C
ED50 (reversal of mechanical allodynia; mouse, spared nerve injury model; intraperitoneal): 0.01 mg/kg

C[C@H]1CN(c2n[nH]c3nc(N[C@H]4CC[C@H](NS(=O)(=O)CCC(F)(F)F)CC4)ncc23)CCO1
IC50 (Stomatin-like protein 2, mitochondrial (Homo sapiens, UniProt Q9UJZ1); biochemical): ≥ 20 µM

CCCCCn1cc(C(=O)C2C(C)(C)C2(C)C)c2ccccc21
ED50 (ring immobility; ICR mouse, male; intravenous): 1 µmol/kg

CNC1(c2ccccc2Cl)CCCCC1=O (racemic)
extracellular glutamate (intracerebral microdialysis; BALB/cJ mice, medial prefrontal cortex; intraperitoneal, 10 mg/kg single, 24 h; baseline: vehicle): increased

CCNC(CC)C(=O)c1ccc2c(c1)OCO2 (stereo not shown)
locomotor recovery time (C57BL/6J male mice; sc, 30 mg/kg): ~90 min

CNC(C)C(=O)c1ccccc1 (racemic)
Emax (ICSS facilitation, intracranial self-stimulation; rat; baseline: baseline): 180%
